{"data": "Assay results from different studies", "note": "Lines come from different studies, so protocols differ."}
{"SMILES": "C/C(N)=N/C(=N\\S(=O)(=O)c1ccc(C(F)(F)F)cc1)N1C[C@H](c2ccccc2)C(c2ccc(Cl)cc2)=N1", "species": "C57BL/6 mouse", "medium": "plasma", "route": "intravenous", "dose": "10 mg/kg", "Vd": "3.5 L/kg"}
{"SMILES": "CCC(=O)N1CCC=C(c2cc3c(Nc4cc5ncsc5cc4F)ncnc3s2)C1", "species": "mouse", "medium": "plasma", "route": "intravenous", "dose": "10 mg/kg", "Vd": "3.73 L/kg"}
{"SMILES": "O=C(NCCCCc1ccccc1)n1c(=O)oc2cc(-c3ccc(F)cc3)ccc21", "species": "CD-1 mouse", "medium": "plasma", "route": "intravenous", "dose": "1 mg/kg", "Vd": "1.84 L/kg"}
{"SMILES": "Cc1cc(NCCOC(C)C)c2nc(N3CCOC[C@H]3C)cc(=O)n2c1", "species": "C57BL/6 mouse", "medium": "plasma", "route": "intraperitoneal", "dose": "10 mg/kg", "setting": "single dose", "Vd": "0.924 L/kg"}
{"SMILES": "COc1cc(OCCN2CCOCC2)cnc1-c1nc2cc(OC(F)(F)F)ccc2[nH]1", "species": "mouse", "medium": "plasma", "route": "intraperitoneal", "dose": "100 mg/kg", "Vd": "959 mL"}
{"SMILES": "Cc1ncsc1-c1ccc(CNC(=O)[C@@H]2C[C@@H](O)CN2C(=O)[C@@H](NC(=O)COCC(C)(COCCOCCOCCNC(=O)C[C@@H]2N=C(c3ccc(Cl)cc3)c3c(sc(C)c3C)-n3c(C)nnc32)COCCOCCOCCNC(=O)C[C@@H]2N=C(c3ccc(Cl)cc3)c3c(sc(C)c3C)-n3c(C)nnc32)C(C)(C)C)cc1", "species": "male C57BL/6 mouse", "medium": "plasma", "route": "intravenous", "dose": "5 mg/kg", "setting": "single dose", "Vd": "0.35 L/kg"}
{"SMILES": "CC(C)NC(=O)NC1CC=C(c2cc3c(Nc4cc5ncsc5cc4F)ncnc3s2)CC1 (racemic)", "species": "mouse", "medium": "plasma", "route": "intravenous", "dose": "10 mg/kg", "Vd": "4.44 L/kg"}
{"SMILES": "COC1C=COC2(C)Oc3c(C)c(O)c4c(c3C2=O)C2=NC3(CCN(CC(C)C)CC3)NC2=C(NC(=O)C(C)=CC=CC(C)C(O)C(C)C(O)C(C)C(OC(=O)c2cccnc2)C1C)C4=O (stereo not drawn)", "species": "female CD-1 mouse", "medium": "plasma", "route": "intravenous", "dose": "5 mg/kg", "Vd": "1.8 L/kg"}
{"SMILES": "O=C(Nc1ccc(C(F)F)cc1)[C@H](CC1CCCCC1)Nc1nn2c(=O)ccnc2s1", "species": "female nude mouse", "medium": "plasma", "route": "intravenous", "dose": "1 mg/kg", "Vd": "1.17 L/kg"}
{"SMILES": "Cn1ccc(-c2cc(Cl)c(Cl)c3[nH]c4c(c23)CN(C(=O)CO)CC4)n1", "species": "C57BL/6 mouse", "medium": "blood", "route": "intravenous", "dose": "0.5 mg/kg", "Vd": "1.08 L/kg"}
{"SMILES": "O=C(O)c1ccc(/C=C2\\SC(=S)N(Cc3cccc(C(F)(F)F)c3)C2=O)cc1", "species": "C57BL/6 mouse", "medium": "blood", "route": "intravenous", "dose": "5 mg/kg", "Vd": "0.46 L/kg"}
{"SMILES": "CCC(=O)NC1CC=C(c2cc3c(Nc4cc5ncsc5cc4F)ncnc3s2)CC1 (racemic)", "species": "mouse", "medium": "plasma", "route": "intravenous", "dose": "10 mg/kg", "Vd": "2.74 L/kg"}
{"SMILES": "COc1cnc2cccc(N3CCc4c(cc(Cn5ccnc5)cc4-c4cn(C)nc4C(F)(F)F)C3=O)c2c1", "species": "male CD-1 mouse", "medium": "plasma", "route": "intravenous", "dose": "3 mg/kg", "Vd": "0.8 L/kg"}
{"SMILES": "Cc1cc(C(=O)N[C@@H](CC(=O)NC(C)(C)C)C(=O)NCCNC(=O)c2cccc(-n3cccn3)c2)no1", "species": "mouse", "medium": "plasma", "route": "intravenous", "dose": "0.1 mg/kg", "Vd": "2.87 L/kg"}
{"SMILES": "CC(C)(C)c1cnc(CSc2cnc(NC(=O)C3CCN(C(=O)CCCCCCCN4Cc5cc6c(cc5C4)C(=O)N(C4CCC(=O)NC4=O)C6=O)CC3)s2)o1 (stereo not drawn)", "species": "mouse", "medium": "plasma", "route": "intravenous", "dose": "2 mg/kg", "Vd": "7.1 L/kg"}
{"SMILES": "COC1C=COC2(C)Oc3c(C)c(O)c4c(c3C2=O)C2=NC3(CCN(CC(C)C)CC3)NC2=C(NC(=O)C(C)=CC=CC(C)C(O)C(C)C(O)C(C)C(OC(=O)Nc2cccnn2)C1C)C4=O (stereo not drawn)", "species": "female CD-1 mouse", "medium": "plasma", "route": "intravenous", "dose": "5 mg/kg", "Vd": "0.5 L/kg"}
{"SMILES": "Cc1cc(NCC(=O)C(C)(C)C)c2nc(N3CCOC[C@H]3C)cc(=O)n2c1", "species": "C57BL/6 mouse", "medium": "plasma", "route": "intraperitoneal", "dose": "10 mg/kg", "setting": "single dose", "Vd": "3.84 L/kg"}
{"SMILES": "Fc1cccc(-n2cc(-c3ccccc3)nc2NCc2ccc(C(F)(F)F)c(F)c2)c1", "species": "male CD-1 mouse", "medium": "plasma", "route": "intraperitoneal", "dose": "25 mg/kg", "setting": "single dose", "Vd": "5.8 L/kg"}
{"SMILES": "CCC1(CC)CC(=O)N(C2c3cc(C(=O)NC4c5ccccc5CC4O)ccc3OC2(C)COC)C(=N)N1 (stereo not drawn)", "species": "male C57BL/6 mouse", "medium": "plasma", "route": "intravenous", "dose": "2 mg/kg", "Vd": "4.6 L/kg"}
{"SMILES": "O=C1CCC(N2C(=O)c3ccc(N4CCC(C(=O)N5CCC(CCN6CCC(CNC(=O)c7cccc(-c8noc(C(F)(F)F)n8)c7)(c7nc(-c8ccccc8)cs7)CC6)CC5)CC4)cc3C2=O)C(=O)N1 (stereo not drawn)", "species": "CD-1 mouse", "medium": "plasma", "route": "intraperitoneal", "dose": "30 mg/kg", "Vd": "19.5 L/kg"}
{"SMILES": "CCC1C(COc2nccc3cc(C(N)=O)c(OC)cc23)NC(=O)C1F (stereo not drawn)", "species": "CD-1 mouse", "medium": "plasma", "route": "intravenous", "dose": "1 mg/kg", "Vd": "69.9 L/kg"}
{"note": "Some of these lines once more:"}
{"SMILES": "CC(C)NC(=O)NC1CC=C(c2cc3c(Nc4cc5ncsc5cc4F)ncnc3s2)CC1 (racemic)", "species": "mouse", "medium": "plasma", "route": "intravenous", "dose": "10 mg/kg", "Vd": "4.44 L/kg"}
{"SMILES": "Cc1cc(C(=O)N[C@@H](CC(=O)NC(C)(C)C)C(=O)NCCNC(=O)c2cccc(-n3cccn3)c2)no1", "species": "mouse", "medium": "plasma", "route": "intravenous", "dose": "0.1 mg/kg", "Vd": "2.87 L/kg"}
